Measurements collected from several papers.
Every numbered part comes from another study and shows a few of its results, in no order. Positions count from the first letter of the parent shown.

Block 1
Target: RING finger protein unkempt homolog, zinc fingers 1-6, GST-SBP tag (UNK, Homo sapiens, UniProt Q9C0B0, residues 30-357)
Chain of UniProt Q9C0B0 (30-357, looked up): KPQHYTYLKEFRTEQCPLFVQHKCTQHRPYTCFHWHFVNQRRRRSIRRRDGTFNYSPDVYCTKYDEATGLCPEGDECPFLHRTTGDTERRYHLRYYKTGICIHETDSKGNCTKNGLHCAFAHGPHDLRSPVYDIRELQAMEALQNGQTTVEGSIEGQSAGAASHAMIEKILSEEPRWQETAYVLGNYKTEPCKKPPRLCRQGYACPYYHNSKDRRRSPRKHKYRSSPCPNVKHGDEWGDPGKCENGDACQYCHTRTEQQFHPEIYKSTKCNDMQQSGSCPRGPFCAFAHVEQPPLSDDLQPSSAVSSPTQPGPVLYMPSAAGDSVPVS
Method: RNA Bind-n-Seq
Form: RNA
Medium: in vitro
Tested at: not given
Setting: RNA with constant flanks, human-mouse chimeric sites, ends assumed
Relative to: input RNA pool
Reading: higher = stronger binding
Strand | bound/input enrichment
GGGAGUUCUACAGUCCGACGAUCCAACCUCAGAGCCCAGACUUCCUGGAUAUUACCAACCCUAAAGCGGUAUUAGAAAACGCAUUGAGAAACUUCGCCUGUCUGACGACUGGAGAUGUGAUUGCUAUCAACUACAAUGAGAAGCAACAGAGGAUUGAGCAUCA | 0.292 ratio
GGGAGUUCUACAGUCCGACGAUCAAAGUGAUGACUAUGUUUGUACAGCGACAGGUAUUUUCGGAGAGCAAAGAUGAGAUUGCGUUAGUCCUGUUUGGUACAGAUGGCACUGAUAAUGCCCUUGCUGGCAAGGACCAGUAUCAGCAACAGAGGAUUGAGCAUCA | 0.188 ratio
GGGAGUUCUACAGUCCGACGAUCAGAGAUAAAGCAUCUAGGAACAUGCGAGGGUCACGGAUGAAUGGGUUGCCUAGCCCCACUCACAGCGCCCACUGUAGCUUCUACCGAACCAGAACCUUGCAGGCACUGAGUAAUGAGAAGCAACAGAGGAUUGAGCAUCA | 0.119 ratio
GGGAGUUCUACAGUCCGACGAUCACACAAUAUGAGACCAACAGCAUGGACUUCAAAGUUGGGGCAGAUGGGACAGUCUUCGCCACUAGGGAGCUGCAGGUCCCCUCCGAGCAGGUGGCGUUCACGGUGACUGCAUGGGACAGCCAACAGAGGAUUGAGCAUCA | 0.214 ratio
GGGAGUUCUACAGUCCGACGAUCCAGGGCACAGCACCUACCCCCUCCUCCUUUCCACACCUGCAAACUCUUUUACUUGGGCUGAAUAUUUAGUGUAAUUACAUCUCAGCUUUGAGGGCUCCUGUGGCAAAUUCCCGGAUUAAACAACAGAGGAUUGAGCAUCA | 0.827 ratio
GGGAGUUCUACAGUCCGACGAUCUCAGGAACCCAGACAAACAUGAAUGUAAAUGAAGUCAUUAGCAAUAGAGCAAUUGAAAUGUUAGGAGGUGAACUUGGCAGCAAGAAGCCUGUGCACCCCAACGAUCAUGUUAACAAAAGCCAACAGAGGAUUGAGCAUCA | 0.746 ratio
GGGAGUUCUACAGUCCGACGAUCUCUUUAAAAAAAAAAUUACCUUUUCUGCAUAUUAUAGCCCUCCCAUAGAUCCACGUUCACACUAGAAGAGCAAAGGCUUUGCACGGAGCUCAAACAUCUGAUGAAGAAAGAUUUCUGAGACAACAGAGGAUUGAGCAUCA | 6.5 ratio
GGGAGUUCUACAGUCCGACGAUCCGCUGGCGUUGAACUGUGUAAAUGUUUGGCCUCCAUCUCUCAGGCACGUGUGCCUUCUCUUAGUCCCUGUUUUCGGGAUGUUAUGAAUCUCAGUACUGUGGUUUGAAAGCACCAGCUUUGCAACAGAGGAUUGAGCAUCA | 0.231 ratio
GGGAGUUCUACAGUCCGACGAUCCAGUCCCCGUGUCCCAGUGCAGGACGAGAACAUGGACUCGAAGACAUGGACCCUCUAUUGUAGUUCUUGAUUCUCGAAAUGUGCUAUUAUUGUUUGUCUUUUUUUUUUUUUUUUUAAAGACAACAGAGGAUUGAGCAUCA | 1.39 ratio
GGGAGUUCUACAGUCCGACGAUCCCUGCUCAGAUCACCAUGAAAGUAAUCCAAGGCCUAUACAGUGGGGUCACCACAGUGGAACUAGAUACCCUGGCUGCUGAGACAGCCGCGACCUUGACCACGAAGCACCCUGACUAUGCCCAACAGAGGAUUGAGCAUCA | 0.163 ratio
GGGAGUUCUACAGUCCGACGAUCGGACAUCUGUCAAAUUGUUAUGUUCCUGUGAAACAAGUGAACACUCUGAUACACUUCAUCUGCUUGUACAUUUAACUGAUAGAGAAAUGUAAAUAUGAAUAUAUUUACAAUGUGUCACUUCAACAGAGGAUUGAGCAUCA | 0.119 ratio

Block 2
Target: Interferon regulatory factor 7, full length, phosphomimetic (IRF7, Homo sapiens, UniProt Q92985, residues 1-503, S471D/S472D/S475D/S476D/S477D/S483D/S484D/S487D)
Chain of UniProt Q92985 (whole entry, unmodified, looked up): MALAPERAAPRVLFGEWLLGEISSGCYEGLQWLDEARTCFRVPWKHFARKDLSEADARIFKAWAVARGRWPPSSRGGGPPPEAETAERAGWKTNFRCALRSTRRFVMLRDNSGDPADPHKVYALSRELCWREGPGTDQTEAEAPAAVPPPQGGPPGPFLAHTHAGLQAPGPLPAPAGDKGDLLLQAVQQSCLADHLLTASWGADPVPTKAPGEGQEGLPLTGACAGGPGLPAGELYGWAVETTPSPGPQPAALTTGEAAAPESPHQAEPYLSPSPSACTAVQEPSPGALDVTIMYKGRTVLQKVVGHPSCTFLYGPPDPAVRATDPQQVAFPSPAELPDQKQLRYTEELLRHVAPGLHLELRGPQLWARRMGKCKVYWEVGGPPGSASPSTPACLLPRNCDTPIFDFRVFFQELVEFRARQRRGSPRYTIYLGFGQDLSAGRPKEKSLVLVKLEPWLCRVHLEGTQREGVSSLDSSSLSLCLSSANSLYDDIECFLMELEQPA
Method: protein-binding microarray
Form: double-stranded DNA, one strand shown
Medium: in vitro
Tested at: 2200 nM top
Setting: 60-bp whole probe
With: salmon DNA 0.4 mg/ml
Relative to: random background probes
Reading: higher = stronger binding
Constant ends, left off below: GCCTAGCAC … GTCTTGATTCGCTTGACGCTGCTG
Strand | fitted relative affinity [z-score]
GAAACACTAATTTTTACTTTGTGCTAG | 0.758
TCACCTTTGAAAGTTGTTACTGTGCTA | 0.9
TGGACTGTGTGTTTGAGTCTGTGCTAG | 0.653
GACGGTGTCGGGACTGGGGACGTGCTA | -1.05
TCAATTTTTTTTATCAAACTGTGCTAG | 0.138
TTAGGTATCCTTATCGTTTAGTGCTAG | 0.878
GACAGTCTCCTTCTCCTGACGTGCTAG | 1.18
TCATCTCTGGACTGTGTGACTGTGCTA | 1.01
TTAGGACTGGGGTAGCGGTTAGTGCTA | -1.03
GACGAACAGAGTTTCGAGACGTGCTAG | 1.81
TTAGATCTCAGACTGCATTAGTGCTAG | -0.156
TCAAATTTTTTTTCTAAACTGTGCTAG | -0.0269
CTATAAAGCATCAGGAAAGCGTGCTAG | -0.661
GACGGACTGGGTTCCGGGACGTGCTAG | -0.821
TTTGATTTCGGGACTGGATTAGTGCTA | 1.75
GACGATGTCGGGTATCGAGACGTGCTA | -0.392
GACGGACTGGGTCGCGGGACGTGCTAG | -0.885
GTAGGTATCGGACTGGGTTAGTGCTAG | -0.106
TTAGATATCAGGTTCGATTAGTGCTAG | 0.589
GACTGTATCGGTTTCGGGACGTGCTAG | 3.75
GACGATTTCGGGACTGGAAACGTGCTA | 1.22
TTAGATATCGGTCTCGGTTAGTGCTAG | 0.661

Block 3
Target: CCNB1, cyclin fold, Cln2 fusion (human)
Method: yeast growth competition, sequencing
Medium: yeast
Setting: weak parent motif
Relative to: not given
Reading: higher = stronger binding
Parent: GMNC docking peptide (human); KNAKRNLSSEFAN
Variant | normalised enrichment score
L7C | -0.311
N2V | 0.123
F11K | 0.044
S8Q | 0.459
E10V | 0.185
S9E | -0.302
S9G | 0.304
N6Y | -0.0475
K4L | 0.117
R5S | 0.47
F11H | 0.0933
S9M | -0.0757
A12H | 0.0129
N2E | 0.43

Further values, each from its own experiment
Molecule | target | test | test system | setting | how to read | quantity | value
PhoQ, residues 284 288 289 292 302 303 NLMGRA | PhoP, residues 12 14 15 18 19 IFFTR (Escherichia coli, UniProt P23836) | Sort-seq, refers to: YFP reporter | E. coli | PhoQ-PhoP variant library, with: 10 µM Mg2+ | relative to: high Mg2+ state, higher = stronger signaling | fold induction | 2.71

Excerpt of the above (block 1):
Strand | bound/input enrichment
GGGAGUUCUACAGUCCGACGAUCUCAGGAACCCAGACAAACAUGAAUGUAAAUGAAGUCAUUAGCAAUAGAGCAAUUGAAAUGUUAGGAGGUGAACUUGGCAGCAAGAAGCCUGUGCACCCCAACGAUCAUGUUAACAAAAGCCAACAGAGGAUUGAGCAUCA | 0.746 ratio
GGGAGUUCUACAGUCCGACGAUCAAAGUGAUGACUAUGUUUGUACAGCGACAGGUAUUUUCGGAGAGCAAAGAUGAGAUUGCGUUAGUCCUGUUUGGUACAGAUGGCACUGAUAAUGCCCUUGCUGGCAAGGACCAGUAUCAGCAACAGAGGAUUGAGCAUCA | 0.188 ratio
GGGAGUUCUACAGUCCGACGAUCGGACAUCUGUCAAAUUGUUAUGUUCCUGUGAAACAAGUGAACACUCUGAUACACUUCAUCUGCUUGUACAUUUAACUGAUAGAGAAAUGUAAAUAUGAAUAUAUUUACAAUGUGUCACUUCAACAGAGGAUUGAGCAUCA | 0.119 ratio
